Experimental data from different studies.
Parts stem from different laboratories: compare values within a part only.

Block 1
Target: Histone acetyltransferase KAT6A, both winged helices, GST fusion (KAT6A, Homo sapiens, UniProt Q92794, residues 1-181)
Technique: protein binding microarray
Molecule type: double-stranded DNA, one strand shown
Matrix: in vitro
Tested at: not given
Notes: 8-mer, flanks averaged, mean of 2 arrays, mostly near background
Baseline: not given
Reading: higher = stronger binding
Quantity: E-score
Residues (chain): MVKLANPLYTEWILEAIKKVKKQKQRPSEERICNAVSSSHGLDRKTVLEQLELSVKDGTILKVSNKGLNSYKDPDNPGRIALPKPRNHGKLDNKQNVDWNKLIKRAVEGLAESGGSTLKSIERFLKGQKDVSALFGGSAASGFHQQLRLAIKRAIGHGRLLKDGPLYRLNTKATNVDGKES
AGAACGAT: 0.004
TGCGGCAA: 0.182
CGAAAATC: -0.0747
CCGCTCAC: 0.256
ATACGACA: -0.168
GACTAAAA: -0.0619
AGTATACC: -0.0192
GGGATTAA: -0.00128
TCAGATAA: -0.0935
ATCTGTAA: -0.00768
GAGATACC: -0.065
AAAGAACG: 0.117
GCGAGAAA: 0.0109
CGACTGTA: 0.0103
GAACAAGC: 0.0804
CCATTCAC: -0.0761
AAGCCATG: -0.285
ACTCTATG: -0.0324
CCAATACA: -0.0881
CGCAAGTA: 0.0892
CTAAACAC: 0.00516
ATGTGCGG: 0.262
GGGCGGCA: 0.26
AGTGTGAA: -0.148
ATACCGAG: 0.0166

Block 2
Target: RING finger protein unkempt homolog, zinc fingers 1-6, GST-SBP tag (UNK, Homo sapiens, UniProt Q9C0B0, residues 30-357)
Sequence of UniProt Q9C0B0 (30-357, looked up): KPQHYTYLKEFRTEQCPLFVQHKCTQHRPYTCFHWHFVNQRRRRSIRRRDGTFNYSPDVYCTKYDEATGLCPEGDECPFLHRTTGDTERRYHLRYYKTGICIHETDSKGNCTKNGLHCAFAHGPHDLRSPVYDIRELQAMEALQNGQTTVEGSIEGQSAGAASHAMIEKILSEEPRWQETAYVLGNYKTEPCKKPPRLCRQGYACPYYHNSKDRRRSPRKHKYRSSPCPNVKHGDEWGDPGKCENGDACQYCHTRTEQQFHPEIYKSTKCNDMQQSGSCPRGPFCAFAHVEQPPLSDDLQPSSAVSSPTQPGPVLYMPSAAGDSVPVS
Technique: RNA Bind-n-Seq
Molecule type: RNA
Matrix: in vitro
Tested at: not given
Notes: RNA with constant flanks, human and mouse sites, ends assumed
Baseline: input RNA pool
Reading: higher = stronger binding
Quantity: bound/input enrichment
All sequences stand within: GGGAGUUCUACAGUCCGACGAUC … CAACAGAGGAUUGAGCAUCA
GAGAAGAGGAAUGCCAUGAACAGGGCUUUCUGGAGGGAGUUGGUGGAAUGCUUCCAAAAGAUAUCCAAAGACUCGGACUGCCGGGCUGUUGUAGUCUCCGGUGCAGGAAAGAUGUUCACU: 0.478 ratio
ACUGCCAGGCUGUUUCAGCCAGGAAGGCCAAAAUCAAGAGUGAGAUGUAGAAAGUUGUAAAAUAGAAAAAGUGGAGUUGGUGAAUCGGUUGUUCUUUCCUCACAUUUGGAUGAUUGUCAU: 1.96 ratio
AGAUCUCAUAAAGAGAGCUCACGGUCCAGGUCAUCUCACAAAGAUUCUCCUAGAGAUGUUAGCAAAAAAGCCAAAAGAUCACCAUCUGGUUCAAGGACACCUAAAAGGUCUAGGCGAUCA: 0.139 ratio
AAAAUUGUCCGAUGCCAUGAACACAUAGAAAUCCUUACAGUAAAUGGAGAAUUACUGUUUUUUAGACAAAGAGAAGGGCCUUUUUAUCCAACUUUAAGAUUACUUCAUAAAUAUCCUUUU: 5.8 ratio
UACAUUGUAGUCAGCUACUUUUCAGAGCUUUUCCAUUUGCUGUCUCAGGGAAAUCGUAAGACUAGGAAUCUUGUUUUGAAAGUAUUUUUGAAUAUGUCUGAAAAUCCCAAGGCAGCCAGA: 0.349 ratio
GUGAACAUAACCAAAGGCAGGGGCGACAGAUCAUCUCUGAAAGUGGUGAAGGCAGCAGCCCAGGUCUUGAAUACAUUAUGGCAAUAUCGGGACCUCCGGAGCAUUUAUAAAAAGGAUGGG: 0.232 ratio
UUCAUUUUAGAGAAGAUACAAGGGAAAAUUACUAUAGAGAAUAGGUCAAAGAAAGAUUUGAUUCAAAUGUUAGUCCAGAGAGGUUAUGAAUCUGACCCAGUGAAAGCCUGGAAAGAAGCA: 12.1 ratio
AAUAAAAUGUACAAAUUUGUUGUGUUUUUUUAUGUUCUAAUAAUACUGAGACUUCUAGGUCUUAGGUUAAUUUUUAGGAAGAUCUUGCAUGCCAUCAGGAGUAAAUUUUAUUGUGGUUCU: 4.56 ratio

Block 3
Target: Centromere-binding protein 1, full length, His-tagged (CBF1, Saccharomyces cerevisiae, UniProt P17106, residues 1-351)
Sequence of UniProt P17106 (whole entry, looked up): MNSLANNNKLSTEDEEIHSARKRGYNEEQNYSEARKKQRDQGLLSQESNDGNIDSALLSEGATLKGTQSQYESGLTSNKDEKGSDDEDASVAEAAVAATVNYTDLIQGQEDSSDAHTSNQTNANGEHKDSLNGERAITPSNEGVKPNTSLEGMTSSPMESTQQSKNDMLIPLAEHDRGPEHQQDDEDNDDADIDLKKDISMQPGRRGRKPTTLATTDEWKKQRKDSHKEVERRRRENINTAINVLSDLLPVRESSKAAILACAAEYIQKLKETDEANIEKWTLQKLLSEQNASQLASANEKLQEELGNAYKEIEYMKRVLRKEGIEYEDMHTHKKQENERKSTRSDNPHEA
Technique: competition protein-binding microarray
Molecule type: double-stranded DNA, one strand shown
Matrix: in vitro
Tested at: 2 µM
Notes: whole 60-bp probe, lowest competitor level
Together with: Pho4 competitor, 0.05 µM
Reading: higher = stronger binding
Quantity: fluorescence intensity
All sequences stand within: … GTCTTGATTCGCTTGACGCTGCTG
GTTCGCATCGTCCGTCACAGCAGCACCAAACACAGG: 71.1 a.u.
CTAACGAAGGTTTGCGAGGTGGGTGACAAGCCAAGT: 71.7 a.u.
TTACCCGGTACGAGTCACGTGATGGAGGTGCATTGG: 16400 a.u.
CGTCCTAGTGATTTTCACGTGTTATCCATGAGGAAG: 1180 a.u.
GGTTTACGTCAGGGTCCTTTGGCGGGTGGTGGTTCA: 56.1 a.u.
AAAGCGGTAATTTGTCACTTCACTTCACATATCTAT: 83.2 a.u.
TGGTTCAGACTGGATCAGGCAATCAGCGAACAAATG: 60.1 a.u.
GCTGCTTTACAAGAACACATGAAAAATCCAGAAGTA: 101 a.u.
ATCAGGTTCTATCCAATACAAAAAGGAGTATGAAGA: 72.9 a.u.
TGCGCAACAACTTGCATTGTGGGTGTATGTCTAGAA: 67.5 a.u.
TTGGAAAGTGGCGATCTTGTGACGGTCAACGATGAT: 76.3 a.u.
TATATCTTTCTATTTCACGTTCACCTTCACCTCTGC: 87 a.u.
GGGGTTAAGGTCTGGCACGATGGTAAGACGATGAGG: 76 a.u.
GAAGTATTTTTTGCGAACGTGGAAGTATTTCACCCA: 94.9 a.u.
GTCTTGTCTCATTTTCACGTGGTTTTCCCCACTTCA: 1000 a.u.
TTATCCACTACCTGTCATGATGGTCCATTTGGTGCT: 67.9 a.u.
CATACCCAACCTTGTTTGGTGGGTGAAGATATTTGT: 78.4 a.u.
TCTGATCTTGTGTTCCACGTGCCTGTGGTGGCTTTA: 883 a.u.
CATCATCGCATCTTACAGATGTCCCGGTTTCACTTT: 68.8 a.u.

Block 4
Target: RNA binding protein fox-1 homolog 2, RRM domain, GST-SBP tag (RBFOX2, Homo sapiens, UniProt O43251-10, residues 100-194)
Technique: RNA Bind-n-Seq
Molecule type: RNA
Matrix: in vitro
Tested at: 365 nM
Notes: natural RNA segment, single round, ends assumed
Baseline: no-protein control
Reading: higher = stronger binding
Quantity: RBNS enrichment (R)
All sequences stand within: GGGAGUUCUACAGUCCGACGAUC … UGGAAUUCUCGGGUGCCAA
GGUUCUUGUCAGCUAGGUUUAAAGGUAUUUCACUGAGAACGCAAAUUCUGUCUUUUCUUGAUUUCGGCUGUUUUCAGUAUUUUGGAGGUAUACAUUUACUUAAAUUCAGU: 0.41
CUCGAGUACUGUGGGCAAUUUAGAAAAAGAACAUGCAGUUUGAAAUUCUGAAUUUGCAAAGUACUGUAAGAAUAAUUUAUAGUAAUGAGUUUAAAAAUCAACUUUUUAUU: 0.786
UUCUAUCCCAAGGAGAGUGUGACUGGGUCACACUCACAGUUGCUGUUACUGAAAUGAACUCUGCAGGAAUGGUGUUUCAGCGGGUGCGGCUUGACUGGUUUGAGUUCCCG: 0.714
UGACAACCUGGCAUAAAGGAGUCAAUUCUUAUGAAAGAGACACAAGGGCCUUAUGGCCAGGGUUUCUUGGGACAAGACUCUCACCAGCACAUCACACACGUUCUCCUUGG: 0.748
GUUCAGGCACUUCCCACCACCUUUGUGCCCCCUCUGGUUGUACUUUCCAGGUCCCUGCUUCUCACCUCCUCCAUCUUGCUUCGCCUUUCAAUAAACAGUUGAUGCAUACC: 0.582
UUAUUUCAAGAAUAUGGCCAUCACUGUUCUCUUAUACAUGUUCUUUUCCAUAUUUUAAUUAUCAAAAUGACCAUAUCAGACUUAUUCCUGGGUAAAUUGCAUUUCAAACU: 0.666
UUGGGGCAUUUAAAGCUACUCUUCUUUCUUCUUCCUCUCUUGACCACAUCCUAGACCCAGUUCCAUAUACACUUCUUCAUCCCAAUACACAGGAAACAUGGAUAAGGAAG: 0.755
CACGGGGAGGUUUGUUUGUGUGAAAGGAAAGUAGUCCAGGCUGUCCCUGAAACUGAGUCUGUGGACACUGUGGAAAGCUUUGAACAAUUGUGUUUUCGUCACAGGAGUCU: 1.75

Some of these lines once more (block 2):
UUCAUUUUAGAGAAGAUACAAGGGAAAAUUACUAUAGAGAAUAGGUCAAAGAAAGAUUUGAUUCAAAUGUUAGUCCAGAGAGGUUAUGAAUCUGACCCAGUGAAAGCCUGGAAAGAAGCA: 12.1 ratio
GAGAAGAGGAAUGCCAUGAACAGGGCUUUCUGGAGGGAGUUGGUGGAAUGCUUCCAAAAGAUAUCCAAAGACUCGGACUGCCGGGCUGUUGUAGUCUCCGGUGCAGGAAAGAUGUUCACU: 0.478 ratio
ACUGCCAGGCUGUUUCAGCCAGGAAGGCCAAAAUCAAGAGUGAGAUGUAGAAAGUUGUAAAAUAGAAAAAGUGGAGUUGGUGAAUCGGUUGUUCUUUCCUCACAUUUGGAUGAUUGUCAU: 1.96 ratio
